# Experimental data collected from several papers.
# Each line is one published result; not all experiments were run side by side. ± gives the spread as reported.
# Technique: steady-state kinetics
# B1: protein N123D (Rhodopseudomonas palustris, UniProt Q6N3R9); chain MSNVRVLATDLAFPEGPVVMPDGSVVLVEIRAQQLTRVWPDGRKEVVAKVPGGPNGAALGPDGKMYICNNGGFGWFPSRGTMMPGAPAPHEYIGGSIQRVDLQSGEVETLFDKCGEHPLKGPDDLVFDKHGGLWFTDLGKRRARDMDVGAAYYIKPGMTEITEQVFGTLPLNGIGLSPDEATMYAAETPTGRLWAFDLSGPGEVKPRDVIYRGEKGKPICGLGGYQMFDSLAVEASGNVCVATLVSGCISVIAPDGTLVEQVPTGDRVTTNIAFGGPDLKTAYITLSGKGELIAMDWSRPGLPLNFLNK
# B2: enzyme L163H/N249W (Thermobifida fusca, UniProt Q47RK4); chain MTDVYILDAVRTPFGRYGGALSGIRPDDLAAHVLRALAERSPGLDPAAVDDVFFGDANGAGEDNRNVARMAALLAGWPTSVPGVTLNRLCGSGMESVIAANRAIAVGDASLAVAGGVESMSRAPWVLPKPAQGFPTGHETLYSTTLGWRMVNPAMPEQWTVSHGESTEQVAATYGISRAEQDAFALRSHERAARAWAEGVFDAEITQIPGAELERDESIRETSAEKLAALKPAFRPDGTITAGNASPLWDGAAALLIGDAAAAERVGREPLARIVSRGVAAVDPDVFGIGPVQAAEIALRRAGIGWDDLSVVELNEAFAAQSLACLKLWPDLDPEIVNPNGGAIAIGHPLGASGARIVGTLAHELHRRGGGWGLAAICIGVGQGLAVVLHR
# B3: UGT84B1 (Arabidopsis thaliana, UniProt O22182); chain MGSSEGQETHVLMVTLPFQGHINPMLKLAKHLSLSSKNLHINLATIESARDLLSTVEKPRYPVDLVFFSDGLPKEDPKAPETLLKSLNKVGAMNLSKIIEEKRYSCIISSPFTPWVPAVAASHNISCAILWIQACGAYSVYYRYYMKTNSFPDLEDLNQTVELPALPLLEVRDLPSFMLPSGGAHFYNLMAEFADCLRYVKWVLVNSFYELESEIIESMADLKPVIPIGPLVSPFLLGDGEEETLDGKNLDFCKSDDCCMEWLDKQARSSVVYISFGSMLETLENQVETIAKALKNRGLPFLWVIRPKEKAQNVAVLQEMVKEGQGVVLEWSPQEKILSHEAISCFVTHCGWNSTMETVVAGVPVVAYPSWTDQPIDARLLVDVFGIGVRMRNDSVDGELKVEEVERCIEAVTEGPAAVDIRRRAAELKRVARLALAPGGSSTRNLDLFISDITIA
# B4: enzyme E217L/L163H/N249W (Thermobifida fusca, UniProt Q47RK4); chain MTDVYILDAVRTPFGRYGGALSGIRPDDLAAHVLRALAERSPGLDPAAVDDVFFGDANGAGEDNRNVARMAALLAGWPTSVPGVTLNRLCGSGMESVIAANRAIAVGDASLAVAGGVESMSRAPWVLPKPAQGFPTGHETLYSTTLGWRMVNPAMPEQWTVSHGESTEQVAATYGISRAEQDAFALRSHERAARAWAEGVFDAEITQIPGAELERDLSIRETSAEKLAALKPAFRPDGTITAGNASPLWDGAAALLIGDAAAAERVGREPLARIVSRGVAAVDPDVFGIGPVQAAEIALRRAGIGWDDLSVVELNEAFAAQSLACLKLWPDLDPEIVNPNGGAIAIGHPLGASGARIVGTLAHELHRRGGGWGLAAICIGVGQGLAVVLHR
# B5: Lxyl-p1-1 V91S (Lentinula edodes, UniProt G8GLN9); chain YFSGLGLGSERSIFRRDLNSTGDESNSTQWPAPLANGGKSWASAFKKAKSTVAEMTVEELANITSGVIGLCSGVTGAVTRLGIPELCLQDGPIGPRGVHGSSQFPAGLTVAATWDRTLMYARARGMGQEFHDQGVHIALAPVTGGPLGRTPLNGRGWEGTFADPYACGEASYQSVKGLTDAGVATVSKHWIAYEQETSRNLYIEFDGVSQADIQLPISSNVDDLTMHELYMWSFAEAVRAGTNHIMCSYNRINNTHSCNNAKGLNQLLKTELNFQGGVVSDWGGQWDSVLSAENGLDVGMPGEGFLGELGDFWGTTLADLINNGTVSEDLVRDKVVRLLTGYYYLGQDINPPPPFVYNTIGAPTLNATSGYRNVRKPGTAELIKEIGSASVTLLKNTGSLPLKHPQRIAVLGNDATYNVLGPNACGLANSACDIDNLNGTLTTGGGSGSALSPYTITPLEALQKRAIEDNAEIAAVVANSNTTTGAEDAIAALLPDADVTFVFLNRYSEEGADAPDFSLGGDGDNLMDLAVTYSSNVVVVIHTTGVVDIEKWADNPNVTAILVAYLPGQEAGNSLVPVLYGDVAPSGKLPWTWGKSIDDYVPNGVVYTDAYSPQSNFTEGVFIDYRWFDKMGITPRYEFGFGLSYTTFTYSNLIVDHGRWAKDYSSVMETAEPFAEWDGTNSLYDVIFTVFATITNTGNLTGSEVAQLYISIPGDNQPVRQLRGFDKIKDLPVGDSAVVTFPIRRKDVSSWSVVDQLWYVPNGDFLISVGGSSRDLPLNTTWTP
# B6: enzyme (Papaver somniferum, UniProt Q9SQ68); chain MESNGVPMITLSSGIRMPALGMGTAETMVKGTEREKLAFLKAIEVGYRHFDTAAAYQSEECLGEAIAEALQLGLIKSRDELFITSKLWCADAHADLVLPALQNSLRNLKLDYLDLYLIHHPVSLKPGKFVNEIPKDHILPMDYKSVWAAMEECQTLGFTRAIGVCNFSCKKLQELMAAAKIPPVVNQVEMSPTLHQKNLREYCKANNIMITAHSVLGAICAPWGSNAVMDSKVLHQIAVARGKSVAQVSMRWVYQQGASLVVKSFNEGRMKENLKIFDWELTAENMEKISEIPQSRTSSADFLLSPTGPFKTEEEFWDEKD
# B7: enzyme N249W (Thermobifida fusca, UniProt Q47RK4); chain MTDVYILDAVRTPFGRYGGALSGIRPDDLAAHVLRALAERSPGLDPAAVDDVFFGDANGAGEDNRNVARMAALLAGWPTSVPGVTLNRLCGSGMESVIAANRAIAVGDASLAVAGGVESMSRAPWVLPKPAQGFPTGHETLYSTTLGWRMVNPAMPEQWTVSLGESTEQVAATYGISRAEQDAFALRSHERAARAWAEGVFDAEITQIPGAELERDESIRETSAEKLAALKPAFRPDGTITAGNASPLWDGAAALLIGDAAAAERVGREPLARIVSRGVAAVDPDVFGIGPVQAAEIALRRAGIGWDDLSVVELNEAFAAQSLACLKLWPDLDPEIVNPNGGAIAIGHPLGASGARIVGTLAHELHRRGGGWGLAAICIGVGQGLAVVLHR
Substance,substrate,pH,temperature,setting,together with,kcat/Km
B1 (protein N123D),O=C1CCc2ccccc2O1,pH 8,,"NaCl 150 mM, no saturation",CaCl2 1 mM,150 M⁻¹ s⁻¹
"enzyme (Allochromatium vinosum, UniProt P45370)",CC(C)(COP(=O)(O)OP(=O)(O)OC[C@H]1O[C@@H](n2cnc3c(N)ncnc32)[C@H](O)[C@@H]1OP(=O)(O)O)[C@@H](O)C(=O)NCCC(=O)NCCSC(=O)C[C@H](O)CN=[N+]=[N-],pH 7.8,30 °C,,,286000 M⁻¹ s⁻¹
"Cj1427c (Campylobacter jejuni, UniProt Q0P8I7)",O=C(O)CCC(=O)C(=O)O,pH 7.4,30 °C,apparent,,4300 ± 300 M⁻¹ s⁻¹
B2 (enzyme L163H/N249W),CC(=O)SCCNC(=O)CCNC(=O)[C@H](O)C(C)(C)COP(=O)(O)OP(=O)(O)OC[C@H]1O[C@@H](n2cnc3c(N)ncnc32)[C@H](O)[C@@H]1OP(=O)(O)O,pH 7.4,37 °C,,,1.67 M⁻¹ s⁻¹
B3 (UGT84B1),O=C(O)Cc1ccccc1,pH 7.5,30 °C,,,450 ± 10 M⁻¹ s⁻¹
B4 (enzyme E217L/L163H/N249W),CC(C)(COP(=O)(O)OP(=O)(O)OC[C@H]1O[C@@H](n2cnc3c(N)ncnc32)[C@H](O)[C@@H]1OP(=O)(O)O)[C@@H](O)C(=O)NCCC(=O)NCCSC(=O)CC(=O)O,pH 7.4,37 °C,,,1.17 M⁻¹ s⁻¹
B5 (Lxyl-p1-1 V91S),[H][C@]12[C@H](OC(=O)c3ccccc3)[C@]3(O)C[C@H](OC(=O)[C@H](O)[C@@H](NC(=O)c4ccccc4)c4ccccc4)C(C)=C([C@@H](O)C(=O)[C@]1(C)[C@@H](O[C@@H]1OC[C@@H](O)[C@H](O)[C@H]1O)C[C@@]1([H])OC[C@@]21OC(C)=O)C3(C)C,,,,,6260 ± 300 M⁻¹ s⁻¹
ω-transaminase A60V/E38Q/F86L/I154V/M128F/P9A/R417L/S87N/W58M (Pseudomonas jessenii),CCCC(=O)c1ccccc1,pH 8,56 °C,apparent,"isopropylamine 1 M, PLP 0.05 mM",1800 ± 500 M⁻¹ s⁻¹
B6 (enzyme),COc1ccc2c3c1O[C@H]1[C@@H](O)C=C[C@H]4[C@@H](C2)N(C)CC[C@@]341,,,,,16300 M⁻¹ s⁻¹
"DAO1 (Trigonopsis variabilis, UniProt Q99042)",O=C1C(Cl)=CC(=Nc2ccc(O)cc2)C=C1Cl,pH 8,22 °C,"varied electron acceptor, apparent",D-methionine 200 mM,1000 M⁻¹ s⁻¹
"CYP2C19 (Homo sapiens, UniProt P33261)",CCOC(=O)C1(c2ccccc2)CCN(C)CC1,pH 7.4,,,,2830 ± 500 M⁻¹ s⁻¹
"OXA-48 (Klebsiella pneumoniae, UniProt Q6XEC0)",C[C@@H](O)[C@H]1C(=O)N2C(C(=O)O)=C(S[C@@H]3CN[C@H](C(=O)N(C)C)C3)[C@H](C)[C@H]12,pH 7.2,30 °C,,,17000 M⁻¹ s⁻¹
"plcB (Listeria monocytogenes, UniProt P33378)",CCCCCCC(=O)OC[C@H](COP(=O)([O-])OCC[N+](C)(C)C)OC(=O)CCCCCC,pH 6,37 °C,,,42000 ± 15000 M⁻¹ s⁻¹
B7 (enzyme N249W),CC(C)(COP(=O)(O)OP(=O)(O)OC[C@H]1O[C@@H](n2cnc3c(N)ncnc32)[C@H](O)[C@@H]1OP(=O)(O)O)[C@@H](O)C(=O)NCCC(=O)NCCSC(=O)CCC(=O)O,pH 7.4,37 °C,,,4 M⁻¹ s⁻¹
pyc R472S (Rhizobium etli),Nc1ncnc2c1ncn2[C@@H]1O[C@H](COP(=O)(O)OP(=O)(O)OP(=O)(O)O)[C@@H](O)[C@H]1O,pH 7.8,30 °C,,,2000 M⁻¹ s⁻¹

# A few entries again:
Substance,substrate,pH,temperature,setting,together with,kcat/Km
B6 (enzyme),COc1ccc2c3c1O[C@H]1[C@@H](O)C=C[C@H]4[C@@H](C2)N(C)CC[C@@]341,,,,,16300 M⁻¹ s⁻¹
"DAO1 (Trigonopsis variabilis, UniProt Q99042)",O=C1C(Cl)=CC(=Nc2ccc(O)cc2)C=C1Cl,pH 8,22 °C,"varied electron acceptor, apparent",D-methionine 200 mM,1000 M⁻¹ s⁻¹
